Experimental data gathered from unrelated publications.

CCN(CC)CC(=O)Nc1cccc(-n2cc(-c3ccc4ccc(-c5cn(-c6cccc(NC(=O)CN(CC)CC)c6)nn5)cc4c3)nn2)c1
fold regulation (RCC4; PCR array, item: PDGFA; 5 x IC50, 2 h, normoxia; reference: untreated): 1.01

Nc1ncc(-c2cc(-c3cnn(CC(F)(F)F)c3)ncc2F)nc1C(=O)NC1CNCC(F)C1 (centres unmarked)
remaining binding (IKK-beta; KINOMEscan competition binding; 1 µM; reference: DMSO control): 43%

C=CC(=O)Nc1cccc(Cn2ncc3cnc(Nc4cnn(CCOC)c4)nc32)c1
percent of control (BRSK1 human; binding, KINOMEscan; 100 nM; lower = stronger binding): 100%

CNS(=O)(=O)Nc1nccc(Cc2c(C)c3ccc(Oc4ncccc4F)cc3oc2=O)c1F
IC50 (LOU-NH91; cell viability; 7 days): > 1000 nM

COC1CN([C@H]2CC[C@H]([C@@]3(C)Oc4c(Cl)cc(C(=O)NCc5c(SC)cc(C)[nH]c5=O)c(C)c4O3)CC2)C1
log2 fold change (RNA-seq, item: SLC9A3R2; human, whole blood; dose not given, 24 h; reference: pretreatment baseline): 1.4

C=C(NC(=O)c1csc(-c2nc3c(cc2O)-c2nc(cs2)C(=O)NC(C(C)O)C(=O)NC(=C(C)OC)c2nc(cs2)C(=O)NC2c4nc(cs4)C(=O)NC(COC(=O)c4c5c6c(cccc6n4O)COC(=O)C(OC4CC(C)(O)C(N(C)C)C(C)O4)C2OC5)c2nc-3cs2)n1)C(N)=O (centres unmarked)
bacterial load (Streptococcus pneumoniae; -25, immunocompromised mice, lung infection, lung; 4 mg/kg/day once daily, 24 h post-dose): 6.85 log CFU/g

C=CC(=O)N1[C@@H](c2ccc3c(c2)OCO3)c2[nH]c3ccccc3c2C[C@H]1C(=O)N1CCN(C)CC1
relative co-enrichment (human cyclin E1 wild type-3xFLAG:CDK2; co-IP with TMT proteomics, item: DNAJA1; concentration not given, P31689; reference: wild type DMSO): 91%

Cc1ncsc1-c1ccc(C(C)NC(=O)C2CC(O)CN2C(=O)C(NC(=O)CCCCCCCCCCN2CCCC(Nc3ncc(Cl)c(Nc4ccccc4S(=O)(=O)C(C)C)n3)C2)C(C)(C)C)cc1 (centres unmarked)
log2 fold change (22Rv1; RNA-seq, item: SLC29A3 mRNA; concentration not given; reference: DMSO): -1.41
